# Measured values collected from several papers.
# Every numbered part comes from another study and shows a few of its results, in no order. Substitutions count along the parent as printed.

# Sample 1 — method: universal PBM; molecule type: double-stranded DNA, one strand shown; matrix: in vitro; tested at: 600 nM; reading: higher = stronger binding
# Target: Sal-like protein 4, full length isoform A (SALL4, Homo sapiens, UniProt Q9UJQ4, residues 1-1053)
# Sequence of UniProt Q9UJQ4 (whole entry, looked up): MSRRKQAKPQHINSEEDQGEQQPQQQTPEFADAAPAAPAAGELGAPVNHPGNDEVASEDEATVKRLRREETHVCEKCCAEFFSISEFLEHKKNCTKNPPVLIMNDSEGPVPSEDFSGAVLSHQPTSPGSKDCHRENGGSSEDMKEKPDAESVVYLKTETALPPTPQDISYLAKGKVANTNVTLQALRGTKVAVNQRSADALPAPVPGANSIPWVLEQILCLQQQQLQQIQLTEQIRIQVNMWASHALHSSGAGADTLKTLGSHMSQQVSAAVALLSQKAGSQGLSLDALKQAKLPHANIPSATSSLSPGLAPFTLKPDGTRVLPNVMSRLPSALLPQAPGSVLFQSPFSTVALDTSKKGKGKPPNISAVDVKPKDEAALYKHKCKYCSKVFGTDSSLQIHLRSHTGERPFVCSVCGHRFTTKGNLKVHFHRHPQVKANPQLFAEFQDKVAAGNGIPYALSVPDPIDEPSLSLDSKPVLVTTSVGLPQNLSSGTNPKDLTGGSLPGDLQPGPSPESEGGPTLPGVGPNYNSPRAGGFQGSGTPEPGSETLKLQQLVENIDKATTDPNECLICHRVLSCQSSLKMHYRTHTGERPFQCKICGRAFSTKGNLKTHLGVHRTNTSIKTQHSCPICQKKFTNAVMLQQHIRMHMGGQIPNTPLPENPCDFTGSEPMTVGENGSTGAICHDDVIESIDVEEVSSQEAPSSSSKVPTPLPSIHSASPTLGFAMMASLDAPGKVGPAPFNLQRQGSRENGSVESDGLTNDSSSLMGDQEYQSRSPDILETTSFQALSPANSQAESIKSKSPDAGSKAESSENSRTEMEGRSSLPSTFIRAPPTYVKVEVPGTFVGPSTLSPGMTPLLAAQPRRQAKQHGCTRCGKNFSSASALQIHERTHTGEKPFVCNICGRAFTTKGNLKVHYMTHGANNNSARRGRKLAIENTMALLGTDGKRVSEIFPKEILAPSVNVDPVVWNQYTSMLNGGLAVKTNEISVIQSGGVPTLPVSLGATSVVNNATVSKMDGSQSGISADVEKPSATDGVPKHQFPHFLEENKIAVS
# Notes: 8-mer, flanks averaged, mean of replicates
Strand,E-score
CACGTCTG,0.0106
TCTAACAA,0.219
CGATCCGA,-0.265
AACCGGCC,-0.423
GTAAATTA,0.33
GAACCCAC,-0.225
CAACGGAC,-0.209
GTATAGAA,0.162
AGCAGAGG,-0.0907
ACCCGGGG,-0.403
TCTACTAA,0.214
AGCAACTC,-0.149
GACGGTAA,-0.00391
ATCTGCAG,-0.00958
AATTGATA,0.316
GACCAGGC,-0.269
AACGCAAT,0.221
GGGAGACA,-0.221
CTGACCAG,-0.196
CACAGCTG,-0.254
ATCCGCCG,-0.166
ACAAGGGT,0.0437
CTAAACTA,0.115
CGGACAGA,-0.301

# Sample 2 — target: CCND1, cyclin fold, Cln2 fusion (human); method: yeast growth competition, sequencing; matrix: yeast; notes: strong parent motif; reference: not given; reading: higher = stronger binding
# Starting sequence: SCAPER docking peptide (human); SNARRSLNFGGST
Change,normalised enrichment score
SRARRSLNFGGST [N2R],0.541
SNARRSLNFGYST [G11Y],0.406
SNARRLLNFGGST [S6L],0.734
SNSRRSLNFGGST [A3S],0.102
SNAARSLNFGGST [R4A],0.839
SNALRSLNFGGST [R4L],-0.382
SNARRSLNIGGST [F9I],-0.0425
SNARFSLNFGGST [R5F],0.94
SNARRWLNFGGST [S6W],1.06
SNARRSLNFFGST [G10F],0.0232
SNARRSLKFGGST [N8K],0.893
YNARRSLNFGGST [S1Y],0.964
SYARRSLNFGGST [N2Y],0.799
SNMRRSLNFGGST [A3M],0.871
SAARRSLNFGGST [N2A],1.04
SNARRSLNMGGST [F9M],0.356
STARRSLNFGGST [N2T],0.963
SNARRSLNFGGSP [T13P],1.69

# Sample 3 — method: protein-binding microarray; molecule type: double-stranded DNA, one strand shown; matrix: in vitro; tested at: 2540 nM top; notes: 60-bp whole probe; together with: salmon DNA 0.4 mg/ml; reference: random background probes; reading: higher = stronger binding; all sequences stand within: GCCTAGCAC … GTCTTGATTCGCTTGACGCTGCTG
# Target: Interferon regulatory factor 3, full length, phosphomimetic (IRF3, Homo sapiens, UniProt Q14653, residues 1-427, S386D/S396D/S398D/S402D/T404D/S405D)
# Target sequence (chain): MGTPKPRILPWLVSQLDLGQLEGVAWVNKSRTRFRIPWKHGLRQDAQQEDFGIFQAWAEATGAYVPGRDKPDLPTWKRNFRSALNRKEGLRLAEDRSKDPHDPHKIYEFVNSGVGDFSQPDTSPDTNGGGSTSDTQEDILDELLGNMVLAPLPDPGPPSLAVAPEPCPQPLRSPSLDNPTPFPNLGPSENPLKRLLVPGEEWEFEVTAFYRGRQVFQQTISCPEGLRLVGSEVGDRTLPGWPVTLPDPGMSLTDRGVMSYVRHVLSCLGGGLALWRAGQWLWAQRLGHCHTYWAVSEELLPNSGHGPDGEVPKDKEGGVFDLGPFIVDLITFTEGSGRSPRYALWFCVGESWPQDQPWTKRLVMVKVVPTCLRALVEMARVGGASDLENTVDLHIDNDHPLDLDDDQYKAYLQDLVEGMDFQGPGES
Strand,fitted relative affinity [z-score]
GAACCTTCCCCTCTAGGTTCGTGCTAG,1.81
GACGGACTGGACACTGTGGACGTGCTA,-0.493
ATGACTCTGCCTCTAACTGCGTGCTAG,-0.493
TTAGGTATCGGATATCGGTTAGTGCTA,2.55
TACGATTTCAGACTGGAGACGTGCTAG,0.625
TTAGGTATACTTCTCCTTTAGTGCTAG,1
TTAGGTAGCCTACTGCTTTAGTGCTAG,-0.0842
TCAGGTATCGGACTGGGTTAGTGCTAG,1.52
GACGGACTGCTTTCCCTGACGTGCTAG,0.48
AAGTTTCTCCTTTCGGAATAGTGCTAG,4.43
GACGATTTCGGGACTGGAGTCGTGCTA,2.1
TTAGGTCTCGATATCGGTTAGTGCTAG,0.796
TCCTCTGTCATTTTCTCTTAGTGCTAG,0.96
TTAGGGATCGGTTTCGGTTAGTGCTAG,6.25
GACGATTTCGGTTCCGAGACGTGCTAG,5.82
GAACCTTCAGCTCTAGGTTCGTGCTAG,0.423
TCCAATTCTCTTTTCACTTTGTGCTAG,2.79
TTAGGTCACCTTATCCTTTAGTGCTAG,1.42
CCCTTTTCATGCTCTTATATAGTGCTA,3.43
GGAAGCTTCTTTTTTATTCTGTGCTAG,0.765
TTAGATTTCGGGTATGGATTAGTGCTA,1.12
GACGATATCAGTATCGAGGCGTGCTAG,1.06
GACGGTTTCCTACTGCTGGCGTGCTAG,5.72
GACGGTATCGACAATCGGGACGTGCTA,0.332

# Sample 4 — method: protein binding microarray; molecule type: double-stranded DNA, one strand shown; matrix: in vitro; tested at: not given; reference: not given; reading: higher = stronger binding
# Target: Histone acetyltransferase KAT6A, winged helix 2, GST fusion (KAT6A, Homo sapiens, UniProt Q92794, residues 85-181)
# Notes: 8-mer, flanks averaged, mean of 2 arrays, mostly near background
# Construct (chain): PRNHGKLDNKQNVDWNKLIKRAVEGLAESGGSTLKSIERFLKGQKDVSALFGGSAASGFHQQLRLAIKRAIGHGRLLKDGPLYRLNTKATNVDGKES
Strand,E-score
GCCAAATA,-0.119
ACCGGATG,0.189
GTCCGCCA,0.0843
CCAGTAAA,-0.0159
GTAAATTA,-0.196
CAGTGTCC,0.0519
GCGTACCA,0.0575
ACCCGGAG,0.226
AGACACCC,-0.0785
AATAATCT,0.00819
AGCAAGAT,0.0844
ATAAATAG,-0.0543
CAACGCCC,0.00664
CTTAAATA,-0.0939
GACAGGAC,0.0864
CGCTCAGC,0.229
CCTTCTCC,0.0218
CGTGATTA,-0.00972
CCGCATTA,-0.0277
ACAGCCTG,0.0192

# Sample 5 — method: RNAcompete; molecule type: RNA; matrix: in vitro; tested at: 20 nM; notes: 7-mer, probes averaged, single round; reference: mean of 7-mers; reading: higher = stronger binding
# Target: PABPC1L2, full length, GST fusion (mouse, UniProt A0ABA7IW68)
# Target sequence (chain): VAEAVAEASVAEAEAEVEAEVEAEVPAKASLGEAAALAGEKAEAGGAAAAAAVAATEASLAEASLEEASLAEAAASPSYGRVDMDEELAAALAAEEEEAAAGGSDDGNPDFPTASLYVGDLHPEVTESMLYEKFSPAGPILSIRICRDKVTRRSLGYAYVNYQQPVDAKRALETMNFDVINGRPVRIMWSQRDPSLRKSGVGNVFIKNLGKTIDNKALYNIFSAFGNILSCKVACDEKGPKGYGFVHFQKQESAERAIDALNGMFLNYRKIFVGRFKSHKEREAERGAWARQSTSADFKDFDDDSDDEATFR
Strand,7-mer Z-score
ACGUGGA,0.191
AGGCGAA,0.483
UGCCGCA,-0.26
AUAUCGA,-0.117
GAAGGCA,0.196
UGGCGGU,0.0334
GUUCAGG,-0.161
UCGGCAA,0.0623
GCCCCCU,-0.267
AGUGCAU,-0.0699
CGAGGGG,0.144
CUACAAU,-0.191
AGGCAGC,0.162
AACACUA,0.457
AAACGAU,0.981
GUAGUUA,-0.119

# Mixed results
Substance,target,assay,system,conditions,scale,measurement,result
"PhoQ, residues 284 288 289 292 302 303 SSCLAV","PhoP, residues 12 14 15 18 19 TQAIL (Escherichia coli, UniProt P23836)","Sort-seq, item: YFP reporter",E. coli,"PhoQ-PhoP variant library, together with: 10 µM Mg2+","reference: high Mg2+ state, higher = stronger signaling",fold induction,8.18
